Assay results collected from several papers.
Compare with care: the assays were run in different laboratories. ± marks the error that the study gave.

Cc1cccc(Cn2nc(C3CC3)c3c(NC(=O)c4cnc5cc(OCCN6CCN(C)CC6)ccn45)cccc32)n1  adverse events incidence (item: Amylase increased; human advanced solid tumours; oral, dose not given, all-causality,, all doses): 26.3%
N.N.[Cl][Pt][Cl]  lesion area (histopathology; tumour-free KSN/Slc nude mice, liver and kidney; dose not given, 10 days): 7.49e+06 µm2
CN[C@@H](C)C(=O)N[C@H]1CN(S(=O)(=O)c2cccc(S(=O)(=O)N3CC[C@H]4CC[C@@H](C(=O)NC(c5ccccc5)c5ccccc5)N4C(=O)[C@@H](NC(=O)[C@H](C)NC)C3)c2)CC[C@H]2CC[C@@H](C(=O)NC(c3ccccc3)c3ccccc3)N2C1=O  treatment-related AST elevation (patients advanced solid tumours; dose not given, all grades all doses): 7.1%
O=S(=O)(Nc1ccccc1)c1ccc(NC(=S)Nc2ccccc2)cc1  relative organ weight (female mice, thymus; oral, 5 mg/kg daily 14 days; reference: body weight): 0.35%
[O-][S+]1CCc2nc(N3CCC(c4ncc(Cl)cn4)CC3)nc(NC3(CO)CCC3)c21 (centres unmarked)  subjects with adverse events (phase I trial, item: nervous system disorders; healthy male volunteers; dose not given, multiple rising dose, all cohorts): 31.3%
CCN(CC)CCCC[C@H](NC(=O)[C@H](CC(C)C)NC(=O)[C@H](C)NC(=O)[C@H](Cc1ccccc1)NC(=O)c1ccc(C(C)(C)C)cc1)C(=O)N[C@@H](CO)C(=O)OC  plasma concentration (male Swiss Albino mice, plasma; intraperitoneal, 10 mg/kg, 0.05 h): 199 ng/mL
O=C1Nc2cc3[nH]nc(-c4ccncc4)c3cc2CN1Cc1ccccc1  patients with subretinal fluid (CTCAE v4.03; human, relapsed or refractory advanced solid tumours; intravenous, 0.9 mg/kg, pooled schedules): 0%
COc1ncccc1-c1cnn2ccc(N3CCN(C(=O)OC(C)C)CC3)nc12  drug concentration (mouse nerve ligation model, brain; oral, 10 mg/kg, 120 min after last dose, repeat dosing day 1): 7.5 µM
CC(C)Nc1ccnc(Nc2cccc(-c3cccnc3)c2)n1  blood chemistry (item: potassium; mouse, blood; intraperitoneal, 10 mg/kg): 7.32 mmol/L
CC[C@H](C)[C@H](NC(=O)[C@H](Cc1ccccc1)NC(=O)[C@H](CCC(=O)O)NC(=O)[C@H](CCCNC(=N)N)NC(=O)[C@H](C)NC(=O)[C@H](C)NC(=O)[C@H](CCC(N)=O)NC(=O)[C@H](CCC(=O)O)NC(=O)[C@H](CCC(=O)O)NC(=O)[C@H](CC(C)C)NC(=O)[C@H](Cc1ccc(O)cc1)NC(=O)[C@H](CO)NC(=O)[C@H](CO)NC(=O)[C@@H](NC(=O)[C@H](CC(=O)O)NC(=O)[C@H](CO)NC(=O)[C@@H](NC(=O)[C@H](Cc1ccccc1)NC(=O)[C@@H](NC(=O)CNC(=O)[C@H](CCC(=O)O)NC(=O)[C@H](C)NC(=O)CCc1cnc[nH]1)[C@@H](C)O)[C@@H](C)O)C(C)C)C(=O)N[C@@H](C)C(=O)N[C@@H](Cc1c[nH]c2ccccc12)C(=O)N[C@@H](CC(C)C)C(=O)N[C@H](C(=O)N[C@@H](CCCNC(=N)N)C(=O)NCC(=O)N[C@@H](CCCNC(=N)N)C(=O)N[C@@H](CCCCNC(=O)COCCOCCNC(=O)COCCOCCNC(=O)CC[C@H](NC(=O)CCCCCCCCCCCCCCCCC(=O)O)C(=O)O)C(=O)NCC(=O)NCC(=O)N[C@@H](CO)C(=O)N[C@@H](CCCCNC(=O)[C@H](CCCCNc1c(NCCCCCN(O)C(=O)CCC(=O)NCCCCCN(O)C(=O)CCC(=O)NCCCCCN(O)C(C)=O)c(=O)c1=O)Nc1c(NCCCCCN(O)C(=O)CCC(=O)NCCCCCN(O)C(=O)CCC(=O)NCCCCCN(O)C(C)=O)c(=O)c1=O)C(=O)O)C(C)C [zirconium-89 labelled]  tissue uptake (ex vivo gamma counting; male Sprague-Dawley rats, bone marrow; intravenous, 1 nmol, 24 h): 0.683 %ID/g
C[C@@H]1OC(=O)NN=C1c1ccc(-c2ccc(F)cc2)c(C(F)(F)F)c1  patients with adverse event (phase I trial, item: platelet count decreased all grades; human patients; 10 mg loading then 0.5 mg daily): 0%
CO[C@H]1C[C@@H]2CC[C@@H](C)[C@@](O)(O2)C(=O)C(=O)N2CCCC[C@H]2C(=O)O[C@H]([C@H](C)C[C@@H]2CC[C@@H](OC(=O)NCCOCCOCCOCCOCCOCCOCCOCCOCCC(=O)N3CCc4cc(Cn5nc(-c6ccc7oc(N)nc7c6)c6c(N)ncnc65)ccc4C3)[C@H](OC)C2)C[C@@H](O)[C@H](C)/C=C(\C)[C@@H](O)[C@@H](OC)C(=O)[C@H](C)C[C@H](C)/C=C/C=C/C=C/1C  decreased appetite leading to dose reduction (patients with advanced solid tumours; intravenous, 6 mg weekly, grade 3 or higher): 0%
NCCCC[C@@H]1NC(=O)[C@@H](Cc2c[nH]c3ccccc23)NC(=O)[C@H](c2ccccc2)NC(=O)[C@@H]2C[C@@H](OC(=O)NCCN)CN2C(=O)[C@H](Cc2ccccc2)NC(=O)[C@H](Cc2ccc(OCc3ccccc3)cc2)NC1=O  subjects with dry mouth (healthy human volunteers; 1950 µg twice daily): 6%
CC(C)[C@@H]1NC(=O)CNC(=O)[C@H](CC(N)=O)NC(=O)[C@H](CCCNC(=N)N)NC(=O)[C@H](Cc2ccc(O)cc2)NC(=O)[C@H](C(C)C)NC(=O)[C@@H](NC(=O)[C@@H](NC(=O)[C@H](CC(N)=O)NC(=O)[C@H](Cc2c[nH]c3ccccc23)NC(=O)[C@H](C)NC(=O)[C@H](Cc2ccccc2)NC(=O)CN)C(C)C)CSSC[C@@H](C(=O)N[C@@H](Cc2cnc[nH]2)C(=O)N[C@@H](CCCNC(=N)N)C(=O)N[C@@H](CCCNC(=N)N)C(=O)N[C@@H](C)C(=O)N[C@@H](CC(N)=O)C(N)=O)NC(=O)[C@H](C(C)C)NC(=O)[C@H](CCCNC(=N)N)NC1=O  phosphorus (ICR mice, serum; intraperitoneal, 10 mg/kg, day 5): 3.3 ± 0.06 mmol/L

Some of these lines once more:
NCCCC[C@@H]1NC(=O)[C@@H](Cc2c[nH]c3ccccc23)NC(=O)[C@H](c2ccccc2)NC(=O)[C@@H]2C[C@@H](OC(=O)NCCN)CN2C(=O)[C@H](Cc2ccccc2)NC(=O)[C@H](Cc2ccc(OCc3ccccc3)cc2)NC1=O  subjects with dry mouth (healthy human volunteers; 1950 µg twice daily): 6%
CC(C)[C@@H]1NC(=O)CNC(=O)[C@H](CC(N)=O)NC(=O)[C@H](CCCNC(=N)N)NC(=O)[C@H](Cc2ccc(O)cc2)NC(=O)[C@H](C(C)C)NC(=O)[C@@H](NC(=O)[C@@H](NC(=O)[C@H](CC(N)=O)NC(=O)[C@H](Cc2c[nH]c3ccccc23)NC(=O)[C@H](C)NC(=O)[C@H](Cc2ccccc2)NC(=O)CN)C(C)C)CSSC[C@@H](C(=O)N[C@@H](Cc2cnc[nH]2)C(=O)N[C@@H](CCCNC(=N)N)C(=O)N[C@@H](CCCNC(=N)N)C(=O)N[C@@H](C)C(=O)N[C@@H](CC(N)=O)C(N)=O)NC(=O)[C@H](C(C)C)NC(=O)[C@H](CCCNC(=N)N)NC1=O  phosphorus (ICR mice, serum; intraperitoneal, 10 mg/kg, day 5): 3.3 ± 0.06 mmol/L
